Published values pooled from the literature.
Each numbered part is a random draw from the data of one study; scales do not carry over between parts. Several values in a cell are separate wells, animals, samples, runs or records.
UniProt P11229, sequence (whole entry, looked up): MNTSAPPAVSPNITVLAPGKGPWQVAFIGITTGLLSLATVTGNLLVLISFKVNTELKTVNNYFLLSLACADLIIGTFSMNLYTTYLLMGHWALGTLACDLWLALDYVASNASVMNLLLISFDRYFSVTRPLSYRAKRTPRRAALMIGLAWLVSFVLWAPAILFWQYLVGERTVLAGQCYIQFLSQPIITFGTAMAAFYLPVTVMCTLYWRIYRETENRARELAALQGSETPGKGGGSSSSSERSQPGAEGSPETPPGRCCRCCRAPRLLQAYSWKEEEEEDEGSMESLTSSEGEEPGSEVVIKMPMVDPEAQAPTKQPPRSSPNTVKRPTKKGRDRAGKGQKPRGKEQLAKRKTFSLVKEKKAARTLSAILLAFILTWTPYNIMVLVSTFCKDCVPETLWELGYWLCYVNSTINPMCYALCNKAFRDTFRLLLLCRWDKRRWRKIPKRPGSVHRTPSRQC
UniProt P28223, sequence (whole entry, looked up): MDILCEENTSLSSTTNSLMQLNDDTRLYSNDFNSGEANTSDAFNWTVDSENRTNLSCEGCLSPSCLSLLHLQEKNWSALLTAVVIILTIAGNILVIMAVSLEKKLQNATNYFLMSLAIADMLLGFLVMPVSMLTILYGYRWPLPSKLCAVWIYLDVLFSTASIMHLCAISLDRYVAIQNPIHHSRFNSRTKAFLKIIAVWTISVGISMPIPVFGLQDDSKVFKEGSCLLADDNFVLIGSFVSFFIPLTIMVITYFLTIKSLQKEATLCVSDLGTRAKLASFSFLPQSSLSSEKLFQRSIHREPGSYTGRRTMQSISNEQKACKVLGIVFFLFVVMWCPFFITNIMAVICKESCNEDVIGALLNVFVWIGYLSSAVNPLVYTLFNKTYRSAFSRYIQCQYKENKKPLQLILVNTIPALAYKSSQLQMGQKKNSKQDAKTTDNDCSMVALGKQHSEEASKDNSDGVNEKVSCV
UniProt P28335, sequence (whole entry, looked up): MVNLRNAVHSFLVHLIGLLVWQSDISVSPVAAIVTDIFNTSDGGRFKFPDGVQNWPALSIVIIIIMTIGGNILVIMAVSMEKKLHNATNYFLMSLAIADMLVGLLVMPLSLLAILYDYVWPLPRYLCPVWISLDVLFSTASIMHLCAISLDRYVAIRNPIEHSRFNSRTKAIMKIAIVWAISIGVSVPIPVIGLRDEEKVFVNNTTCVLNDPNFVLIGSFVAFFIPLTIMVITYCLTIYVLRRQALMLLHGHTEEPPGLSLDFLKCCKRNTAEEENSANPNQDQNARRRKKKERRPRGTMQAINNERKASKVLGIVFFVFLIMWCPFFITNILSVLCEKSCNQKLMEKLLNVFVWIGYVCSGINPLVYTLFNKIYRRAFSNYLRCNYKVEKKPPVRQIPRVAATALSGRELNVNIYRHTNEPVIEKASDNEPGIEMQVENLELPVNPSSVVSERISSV

Study 1 — sample: plasma
Compound: O=C1CCC(N2Cc3c(ccc4c3OCC43CCN(Cc4ccccc4)CC3)C2=O)C(=O)N1 (stereo not shown)
For male Sprague-Dawley rat; intravenous, 1 mg/kg: MRT(0-inf) read 2.62 h.
The MRT(0-inf) was 2.59 h and 2.58 h (rat Sprague Dawley male; intravenous, 1.0 mg/kg).
It gave 3.72 h and 4.18 h for MRT(0-inf) (rat Sprague Dawley male; oral, 3.0 mg/kg).
It gave 1.45 h and 2.32 h for MRT(0-inf) (male ICR mice; intravenous, 1.0 mg/kg).
For ICR mouse, male; intravenous, 1.0 mg/kg: MRT(0-inf) read 1.64 h.

Study 2 — read-out: binding; method: radioligand binding; tested at: 10 µM
SMILES: CNC(=O)c1cc(C(=O)N[C@H]2[C@@H]3COC[C@@H]32)cc2c1O[C@@H](CF)[C@@H]2c1ccccc1
The inhibition was -11% (HTR2C (Homo sapiens, UniProt P28335)).
It gave 12.1% for inhibition (CHRM1 (Homo sapiens, UniProt P11229)).
For HTR2A (Homo sapiens, UniProt P28223): inhibition read 11.6%.

Study 3 — read-out: peptide-MHC binding; molecule type: peptide; tested at: concentration not given
Target: HLA class I histocompatibility antigen, A alpha chain, allele A*80:01 (Homo sapiens, UniProt P04439)
`IQAVFGFSL`: binding “inactive”.
For `EVRLATMLF`, binding read “inactive”.
`NYIDKVRFL` — result for binding: “inactive”.
For `VERRLVKVL`, binding read “inactive”.
Under binding, `GKLDPTNTL` is recorded as “inactive”.
Under binding, `SSLLWGFYL` is recorded as “inactive”.
For `RIYDPLWFQ`, binding read “inactive”.
Under binding, `KVGFIMLFH` is recorded as “active”.

Study 4 — cell line: HEK-293T-ACE2-TMPRSS2; method: cell count; tested at: 10 µM
For `CCCc1nc(Cn2ncc(Br)c(Br)c2=O)no1`, the viability was 95%.
With `CC1Oc2ccccc2OC1C(=O)Nc1nc(-c2ccc(N(C)S(C)(=O)=O)cc2)cs1` (stereo not shown) the viability was 65%.
With `OC[C@@H]1CN(C2CCCC2)C[C@H]1c1nc(-c2ccncc2)no1` the viability was 106%.

Some of these lines once more (study 3):
For `EVRLATMLF`, binding read “inactive”.
`IQAVFGFSL`: binding “inactive”.
`NYIDKVRFL` — result for binding: “inactive”.
